Published values gathered from unrelated publications.
Several values in a cell are separate wells, animals, samples, runs or records. ± gives the spread as reported.
PARP1: Poly [ADP-ribose] polymerase 1 (PARP1, Homo sapiens, UniProt P09874)
Sequence of UniProt P09874 (whole entry, looked up): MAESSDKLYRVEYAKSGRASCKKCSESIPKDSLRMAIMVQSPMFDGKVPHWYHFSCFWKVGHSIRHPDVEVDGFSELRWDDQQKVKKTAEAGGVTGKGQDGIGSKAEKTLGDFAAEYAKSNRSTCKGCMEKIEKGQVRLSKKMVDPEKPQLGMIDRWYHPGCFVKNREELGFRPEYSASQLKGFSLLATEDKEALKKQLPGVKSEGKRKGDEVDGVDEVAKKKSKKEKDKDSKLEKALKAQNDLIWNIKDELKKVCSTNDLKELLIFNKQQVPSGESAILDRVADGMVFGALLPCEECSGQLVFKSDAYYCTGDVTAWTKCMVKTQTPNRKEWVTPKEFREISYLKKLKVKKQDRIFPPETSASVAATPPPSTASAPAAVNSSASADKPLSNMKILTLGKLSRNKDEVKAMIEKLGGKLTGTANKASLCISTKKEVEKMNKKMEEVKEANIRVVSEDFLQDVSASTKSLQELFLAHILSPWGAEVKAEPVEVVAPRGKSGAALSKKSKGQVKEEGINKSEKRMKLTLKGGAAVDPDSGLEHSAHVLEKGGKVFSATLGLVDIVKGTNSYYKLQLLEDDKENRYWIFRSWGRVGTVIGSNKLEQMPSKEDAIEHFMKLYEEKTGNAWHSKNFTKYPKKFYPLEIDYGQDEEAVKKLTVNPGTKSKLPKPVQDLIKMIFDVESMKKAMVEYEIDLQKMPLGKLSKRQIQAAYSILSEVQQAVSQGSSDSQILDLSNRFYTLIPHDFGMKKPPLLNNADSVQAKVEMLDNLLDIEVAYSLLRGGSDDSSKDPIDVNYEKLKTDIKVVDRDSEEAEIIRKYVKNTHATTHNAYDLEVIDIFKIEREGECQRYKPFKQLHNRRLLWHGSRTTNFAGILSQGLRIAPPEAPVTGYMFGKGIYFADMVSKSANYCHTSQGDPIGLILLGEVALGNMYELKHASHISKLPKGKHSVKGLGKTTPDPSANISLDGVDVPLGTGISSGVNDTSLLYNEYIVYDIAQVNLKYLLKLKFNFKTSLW
FAAH: Fatty-acid amide hydrolase 1 (FAAH, Homo sapiens, UniProt O00519)
Sequence of UniProt O00519 (whole entry, looked up): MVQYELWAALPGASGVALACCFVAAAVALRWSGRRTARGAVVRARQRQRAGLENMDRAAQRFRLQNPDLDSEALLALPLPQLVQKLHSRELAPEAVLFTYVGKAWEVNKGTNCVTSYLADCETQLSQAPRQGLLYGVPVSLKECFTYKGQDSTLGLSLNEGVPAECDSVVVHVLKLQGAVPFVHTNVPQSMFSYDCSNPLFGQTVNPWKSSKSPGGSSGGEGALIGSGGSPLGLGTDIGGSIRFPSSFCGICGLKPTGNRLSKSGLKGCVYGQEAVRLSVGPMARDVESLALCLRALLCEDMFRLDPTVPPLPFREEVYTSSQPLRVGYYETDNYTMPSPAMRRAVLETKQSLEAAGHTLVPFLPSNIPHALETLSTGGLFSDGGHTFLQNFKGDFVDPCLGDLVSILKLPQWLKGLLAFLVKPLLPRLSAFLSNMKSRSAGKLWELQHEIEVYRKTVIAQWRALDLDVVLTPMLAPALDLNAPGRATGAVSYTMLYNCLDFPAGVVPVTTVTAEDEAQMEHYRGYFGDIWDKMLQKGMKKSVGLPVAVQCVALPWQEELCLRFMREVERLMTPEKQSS
ABCC1: Multidrug resistance-associated protein 1 (ABCC1, Homo sapiens, UniProt P33527)
Grin1/Grin2a: Glutamate NMDA receptor; Grin1/Grin2a (Grin1/Grin2a, Rattus norvegicus, UniProt P35439+Q00959)
CXCR4: C-X-C chemokine receptor type 4 (CXCR4, Homo sapiens, UniProt P61073)
Sequence of UniProt P61073 (whole entry, looked up): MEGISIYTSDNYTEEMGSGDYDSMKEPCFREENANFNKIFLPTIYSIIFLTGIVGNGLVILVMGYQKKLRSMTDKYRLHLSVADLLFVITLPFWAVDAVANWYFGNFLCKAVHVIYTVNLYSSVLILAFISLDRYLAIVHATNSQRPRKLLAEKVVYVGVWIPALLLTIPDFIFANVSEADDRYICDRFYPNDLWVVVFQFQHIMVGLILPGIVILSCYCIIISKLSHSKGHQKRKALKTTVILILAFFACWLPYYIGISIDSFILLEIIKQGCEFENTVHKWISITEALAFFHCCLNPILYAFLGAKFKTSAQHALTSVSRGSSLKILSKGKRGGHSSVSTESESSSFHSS
DPP4: Dipeptidyl peptidase 4 (DPP4, Homo sapiens, UniProt P27487)
HDAC8: Histone deacetylase 8 (HDAC8, Homo sapiens, UniProt Q9BY41)
Sequence of UniProt P49841 (whole entry, looked up): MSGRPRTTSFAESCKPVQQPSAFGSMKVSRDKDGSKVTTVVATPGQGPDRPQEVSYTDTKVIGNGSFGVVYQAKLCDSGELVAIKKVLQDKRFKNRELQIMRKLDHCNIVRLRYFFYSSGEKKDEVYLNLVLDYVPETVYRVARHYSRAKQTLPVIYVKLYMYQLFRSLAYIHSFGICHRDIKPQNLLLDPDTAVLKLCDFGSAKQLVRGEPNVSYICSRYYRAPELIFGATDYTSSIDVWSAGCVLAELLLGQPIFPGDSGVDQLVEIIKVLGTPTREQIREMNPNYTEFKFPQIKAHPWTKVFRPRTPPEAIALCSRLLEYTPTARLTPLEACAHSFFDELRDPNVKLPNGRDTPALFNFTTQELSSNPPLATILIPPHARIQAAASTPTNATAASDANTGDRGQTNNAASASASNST
Sequence of UniProt P9WFX1 (whole entry, looked up): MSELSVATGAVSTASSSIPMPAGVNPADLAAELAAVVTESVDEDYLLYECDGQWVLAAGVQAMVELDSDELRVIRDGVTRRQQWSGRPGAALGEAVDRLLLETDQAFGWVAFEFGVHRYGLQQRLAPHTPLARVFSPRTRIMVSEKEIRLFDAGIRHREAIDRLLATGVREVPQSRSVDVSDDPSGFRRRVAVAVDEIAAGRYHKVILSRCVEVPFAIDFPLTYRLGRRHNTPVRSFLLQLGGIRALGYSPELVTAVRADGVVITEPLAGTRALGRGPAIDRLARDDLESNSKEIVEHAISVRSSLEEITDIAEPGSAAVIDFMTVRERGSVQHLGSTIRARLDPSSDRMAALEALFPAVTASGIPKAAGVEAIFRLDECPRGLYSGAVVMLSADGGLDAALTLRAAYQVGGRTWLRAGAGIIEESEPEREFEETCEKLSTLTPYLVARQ
Sequence of UniProt P35346 (whole entry, looked up): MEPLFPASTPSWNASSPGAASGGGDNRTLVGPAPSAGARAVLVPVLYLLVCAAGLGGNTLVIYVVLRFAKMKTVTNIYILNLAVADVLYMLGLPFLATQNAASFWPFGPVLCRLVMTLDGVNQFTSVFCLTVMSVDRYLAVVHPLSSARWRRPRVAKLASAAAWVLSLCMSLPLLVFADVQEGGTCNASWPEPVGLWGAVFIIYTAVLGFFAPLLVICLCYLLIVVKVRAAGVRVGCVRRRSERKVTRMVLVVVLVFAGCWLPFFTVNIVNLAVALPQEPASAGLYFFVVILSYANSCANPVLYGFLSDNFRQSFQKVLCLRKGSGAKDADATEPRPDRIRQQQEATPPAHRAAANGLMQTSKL
Sequence of UniProt Q9BY41 (whole entry, looked up): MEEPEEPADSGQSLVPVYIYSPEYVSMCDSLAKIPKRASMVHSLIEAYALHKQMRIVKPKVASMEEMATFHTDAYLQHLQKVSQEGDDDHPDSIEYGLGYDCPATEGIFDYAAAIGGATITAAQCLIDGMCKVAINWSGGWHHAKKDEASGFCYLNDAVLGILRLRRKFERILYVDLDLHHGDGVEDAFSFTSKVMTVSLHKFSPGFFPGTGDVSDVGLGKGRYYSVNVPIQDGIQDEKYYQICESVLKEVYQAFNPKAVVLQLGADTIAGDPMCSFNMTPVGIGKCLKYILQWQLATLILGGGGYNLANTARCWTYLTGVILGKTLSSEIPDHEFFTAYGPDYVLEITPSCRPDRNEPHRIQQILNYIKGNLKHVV

CCCCCCCCOc1ccccc1C(=O)Nc1ccc(C(=O)OCC[N+](C)(CC)CC)cc1 — IC50 (Calmodulin-1, with adenylyl cyclase 8 (CALM1, Homo sapiens, UniProt P0DP23); AC8-calmodulin interaction, NanoBiT complementation; HEK-293T; 30 min pretreatment, with: rat AC8): 5010 nM
CN1CCN(C[C@@H]2COc3cccc(C(N)=O)c3O2)CC1 — IC50 (PARP1): > 5000 nM
CC(C)NCc1ccc(C[C@@H]2NC(=O)[C@H](N(C)C(=O)c3ccc4ccccc4c3)NC(=O)[C@H](Cc3ccccc3)NC(=O)[C@H](N)CSSC[C@@H](C(=O)N[C@@H](Cc3ccc4ccccc4c3)C(N)=O)NC(=O)[C@H](Cc3ccccc3)NC2=O)cc1 — IC50 (Somatostatin receptor type 5 (SSTR5, Homo sapiens, UniProt P35346); ligand displacement, radioligand; cell membranes): 635 nM and 279 nM
COc1ccc(Cn2cc(CNC(=O)OCc3cn(Cc4ccccc4OC)nn3)nn2)cc1 — IC50 (FAAH; enzyme activity, inhibitor, fluorescence; cell membranes): 30.7 nM
CCOC(=O)CC1C(C(=O)OCC)=C(N)Oc2ccc(-c3cc(OC)cc(OC)c3)cc21 (single isomer, unassigned; (-)) — IC50 (Sarcoplasmic/endoplasmic reticulum calcium ATPase 1 (ATP2A1, Oryctolagus cuniculus, UniProt P04191); ATPase activity, inhibitor, absorbance): 13500 nM
Nc1ncnc2c1ncn2[C@@H]1O[C@H](COP(=O)(O)OP(=O)(O)C(Cl)(Cl)P(=O)(O)O)[C@@H](O)[C@H]1O — IC50 (Receptor-type tyrosine-protein kinase FLT3 (FLT3, Homo sapiens, UniProt P36888); enzyme activity, inhibitor, HotSpot kinase; with: ATP 1 µM): 120 nM
Cc1ccc(S(=O)(=O)/C=C/C#N)cc1 — IC50 (Proteasome Macropain subunit MB1 (PSMB5, Homo sapiens, UniProt P28074); enzyme activity; with: Suc-LLVY-AMC substrate, ATP): > 30000 nM
CN1CCN(C2=Nc3ccccc3Oc3ccc(Cl)cc32)CC1 — IC50 (ABCC1; substrate efflux, inhibitor, flow cytometry; ABCC1-overexpressing SupT1-Vin cells; with: BODIPY-FL-prazosin 100 nM): 8000 ± 1900 nM
CCOC(=O)c1c(C)oc2c1cc(NS(=O)(=O)c1ccc(OCC)cc1)c1ccccc12 — IC50 (Cyclin-dependent kinase 1, with cyclin A2 (CDK1, Homo sapiens, UniProt P06493); enzyme activity, inhibitor, ADP-Glo; upper-bound estimate, partial inhibition): 2900 ± 750 nM
CC(=O)O[C@]1(C(C)=O)CC[C@H]2[C@@H]3C[C@H](C)C4=CC(=O)CC[C@]4(C)[C@H]3CC[C@@]21C — IC50 (CatSper channel complex (Homo sapiens, UniProt Q7RTX7+Q86XQ3+Q8NEC5+Q96P56); calcium influx, inhibitor; human sperm; pH 8.2, with: 140 mM K+): > 10000 nM
[Zn+2] — IC50 (Grin1/Grin2a; pH 6.8): 18 nM
CC(C)C(C(=O)O)[C@@H]1CCN[C@H]1C(=O)O (relative stereo) — IC50 (AMPA receptor, rat; binding; cortical synaptosomes; with: [3H]-AMPA): > 100000 nM
COc1ccc2c(NC3CCNCC3)nc(NCc3ccc(CNCCCNC4CCCCCC4)cc3)nc2c1 — IC50 (CXCR4; ligand displacement, radioligand; cell membranes): 12.8 nM and ~10 nM
O=C(Nc1cc(F)c(F)c(F)c1Br)c1cc(S(=O)(=O)N2CCOCC2)c(Cl)cc1Cl — IC50 (Lysophosphatidic acid receptor 4 (LPAR4, Homo sapiens, UniProt Q99677); Ca2+ mobilization, antagonist; CHO; with: LPA at EC50): > 100000 nM
O=c1[nH]c2ccccc2n1C1CCN(CCCC(c2ccc(F)cc2)c2ccc(F)cc2)CC1 — IC50 (ABCC1; efflux, inhibitor; SupT1-Vin overexpressing ABCC1; with: SYTO 13 100 nM): 7200 ± 2600 nM
O=C1C=C2CC3(O)COc4c(ccc(O)c4O)C3=C2C=C1O (stereo not shown) — IC50 (Cell division cycle 7-related protein kinase, with DBF4 (CDC7, Homo sapiens, UniProt O00311); enzyme activity, inhibitor, ADP-Glo luminescence; with: ATP 12.5 µM): 3130 ± 360 nM
COc1ccc2c(NC3CCNCC3)nc(NCc3ccc(CNCCCNC4CCCCC4)cc3)nc2c1 — IC50 (CXCR4; ligand displacement, radioligand; cell membranes): ~10 nM and 6.8 nM
Clc1cc(Cl)c(OC2CC2)c(CN[C@H]2CCCN(c3nc4nc(Cl)ccc4[nH]3)C2)c1 — IC50 (Methionyl-tRNA synthetase, putative (Trypanosoma brucei brucei, UniProt Q38C91); enzyme activity, inhibitor): > 300 nM
COc1ccccc1Cn1cc(COC(=O)NC2CCCCC2)nn1 — IC50 (FAAH; enzyme activity, inhibitor, fluorescence; cell membranes): 337 nM
c1nc2c(NCc3cn(CCCNCCCNC4CCCCC4)nn3)nc(N3CCNCC3)nc2[nH]1 — IC50 (CXCR4; reporter gene, antagonist): 0.167 nM
O=C(CSc1nc2ccccc2c(=O)n1-c1ccccc1)Nc1ccc(C(=O)C=Cc2ccc(Cl)cc2)cc1 — IC50 (PARP1; enzyme activity, inhibitor, absorbance): 173 nM
NC(=O)c1cc([N+](=O)[O-])cc2c1OCCO2 — IC50 (PARP1): > 5000 nM
COc1ccc2nc(/C=C/c3cccc([N+](=O)[O-])c3)n(-c3ccc(C(=O)O)cc3)c(=O)c2c1 — IC50 (Grin1/Grin2a; ion current, two-electrode voltage clamp; oocytes): 182000 nM
Cn1c(=O)c(=O)n(C)c2cc(S(=O)(=O)NNC(=O)NCc3ccccc3)ccc21 — IC50 (DPP4; enzyme activity, inhibitor, fluorescence): 0.048 nM
COc1cccc2cc(-c3nnc(SCC(=O)Nc4cc([N+](=O)[O-])ccc4C)n3-c3ccccc3)oc12 — IC50 (fungal tyrosinase; enzyme activity, inhibitor, dopachrome absorbance; pH 6.8, 37 °C, with: L-tyrosine substrate): 1530 ± 2300 nM
[Zn+2] — IC50 (Caspase-8 (CASP8, Homo sapiens, UniProt Q14790); enzyme activity, inhibitor; NTA-buffered free compound, with: LEHD-AMC substrate): 9.25 ± 1.2 nM
COc1ccc(OCC2=C(C)C(=O)c3ccccc3C2=O)cc1C(F)(F)F — IC50 (Thioredoxin reductase 1, cytoplasmic (TXNRD1, Homo sapiens, UniProt Q16881); enzyme activity, inhibitor; pH 7.4, with preincubation): 800 nM
CC(=O)n1c(=S)[nH]c2ccccc21 — IC50 (mbtI (Mycobacterium tuberculosis, UniProt P9WFX1); enzyme activity, inhibitor, fluorescence; pH 8): 5890 nM and 5900 nM
NC(=O)c1cccc(-c2cc(OC(=O)NC3CCCCC3)ccc2O)c1 — IC50 (FAAH; enzyme activity, inhibitor, fluorescence; pH 8): 17 nM
COC(=O)c1ccc(O)cc1 — IC50 (FAAH; enzyme activity, inhibitor, fluorimetric; 60 min preincubation, recombinant enzyme, with: OMP substrate 50 µM): > 100000 nM
O=C(CCCCCC(=O)NN=Cc1ccc(-c2ccccc2)cc1)NO — IC50 (HDAC8; inhibitor): > 2000 nM
O=C(O)c1cc2cc(-c3ccccc3)ccc2c(I)c1O — IC50 (Grin1/Grin2a; ion current, two-electrode voltage clamp; oocytes): 5480 nM
Cc1nc2ccccc2n1Cc1ccc(C(=O)NO)cc1 — IC50 (HDAC8; concentration not given): 305 nM
CN1CCN(c2nc(NCc3ccc(CNCCCNC4CCCCC4)cc3)c3ncn(C)c3n2)CC1 — IC50 (CXCR4; ligand displacement, radioligand; cell membranes): 59.5 nM
Cn1c(=O)c(=O)n(C)c2cc(S(=O)(=O)Nc3ccc(S(N)(=O)=O)cc3)ccc21 — IC50 (DPP4; enzyme activity, inhibitor, fluorescence): 0.6 nM
CN1CCC2(CC1)c1ccccc1N(Cc1ccc(C(=O)NO)s1)C2c1ccc(Cl)cc1 (stereo not shown) — IC50 (Histone deacetylase 8 (Schistosoma mansoni, UniProt A5H660); enzyme activity, inhibitor, Fluor-de-Lys; varied substrate concentration, with: Fluor-de-Lys substrate 150 µM): 41 ± 2 nM
OCCN1CCN(CCC=C2c3ccccc3Sc3ccc(C(F)(F)F)cc32)CC1 — IC50 (Ubiquitin carboxyl-terminal hydrolase 2 (USP2, Homo sapiens, UniProt O75604)): > 114000 nM
O=C(OCc1ccccc1)c1ccccc1 — IC50 (FAAH; enzyme activity, inhibitor, fluorescence; with preincubation): > 100000 nM
COc1cc2nccc(Oc3ccc(NC(=O)NC4CC4)c(Cl)c3)c2cc1C(N)=O — IC50 (Equilibrative nucleoside transporter 1 (SLC29A1, Homo sapiens, UniProt Q99808); transporter uptake, inhibitor, radiometric): 7400 nM
O=C(NNC(=O)c1ccc(CNS(=O)(=O)c2ccc(F)c(Cl)c2)cc1)c1ccccc1 — IC50 (Glutamate NMDA receptor; Grin1/Grin2a (Grin1/Grin2a, Rattus norvegicus, UniProt P35439+Q00959, V783W); ion current, two-electrode voltage clamp; oocytes): 36 nM
COc1cccc2cc(-c3nnc(SCC(=O)Nc4ccc(C)cc4C)n3-c3ccccc3)oc12 — IC50 (fungal tyrosinase; enzyme activity, inhibitor, dopachrome absorbance; pH 6.8, 37 °C, with: L-tyrosine substrate): 1580 ± 5380 nM
COc1ccc(-c2cc(=O)c3c(OC)c([C@@H]4O[C@H](C(=O)NCCC(F)(F)F)[C@@H](O)[C@H](O)[C@H]4O)c(OC)cc3o2)cc1OC — IC50 (Glycogen synthase kinase-3 beta (GSK3B, Homo sapiens, UniProt P49841); enzyme activity, inhibitor, ADP detection): < 20000 nM and 17200 nM
C#Cc1cc2oc(=O)ccc2cc1OC — IC50 (Cytochrome P450 1A1 (CYP1A1, Homo sapiens, UniProt P04798); enzyme activity, inhibitor, fluorescence; 6 min, pH 7.6): 48500 nM
COC(=O)C(Cc1ccc(CCCC(=O)NCCC(=O)Nc2ccc3nc(C)sc3c2)cc1)C(=O)OC — IC50 (L-lactate dehydrogenase B chain (LDHB, Homo sapiens, UniProt P07195); inhibitor, NADH fluorescence; pyruvate competition, with: 150 µM NADH, 200 µM pyruvate): > 200000 nM
CN(CCCNC(=O)c1cccc(Br)c1)C(C)(C)C — IC50 (Lethal(3)malignant brain tumor-like protein 3 (Homo sapiens, UniProt Q96JM7); methyl-lysine reader binding, inhibitor, AlphaScreen): > 500000 nM
COc1ccc(-c2ccc3c(c2)[nH]c2ccncc23)cc1 — IC50 (Microtubule-associated protein tau (MAPT, Homo sapiens, UniProt P10636); ligand displacement, radioligand): 34.7 nM
[Cl-].[Cl-].[Zn+2] — IC50 (Voltage-gated hydrogen channel 1 (HVCN1, Homo sapiens, UniProt Q96D96, D185H/E119H/H140A/H193A); proton current, inhibitor, whole-cell voltage clamp; human cells; pH 6.5, test pulse 120 mV): 13800 nM
CC(=O)c1ccc(NC(=O)CNNc2nc3ccccc3c(=O)n2-c2ccccc2)cc1 — IC50 (PARP1; enzyme activity, inhibitor, absorbance): 90.4 nM
C[C@H]1C[C@H]2[C@@H]3CCC4=CC(=O)C=C[C@]4(C)[C@@]3(Cl)[C@@H](O)C[C@]2(C)[C@@]1(O)C(=O)CO — IC50 (Vascular endothelial growth factor receptor 1 (FLT1, Homo sapiens, UniProt P17948)): > 10000 nM
insulin icodec — IC50 (Insulin receptor, isoform A (INSR, Homo sapiens, UniProt P06213); binding, competitor, scintillation proximity; solubilized receptor; HSA 0%): 5.47 nM
C[C@@H](CNCc1ccccc1)N1C[C@H](CCCNC(=N)N)N(CCc2cccc(F)c2)C1=S — IC50 (Prolactin-releasing peptide receptor (PRLHR, Homo sapiens, UniProt P49683); receptor activation, antagonist, FLIPR): > 10000 nM
CCc1ccccc1NC(=O)C(C)Sc1nnc(Cc2c[nH]c3ccccc23)o1 (stereo not shown) — IC50 (alpha-glucosidase; enzyme activity; with: p-nitrophenyl glucopyranoside): 159800 ± 140 nM
NC(=O)c1ccc([N+](=O)[O-])c2c1OCCO2 — IC50 (PARP1): > 5000 nM
C#Cc1ccc2c(-c3ccccc3)c(C)c(=O)oc2c1 — IC50 (Cytochrome P450 1A2 (CYP1A2, Homo sapiens, UniProt P05177); enzyme activity, inhibitor; 6 min, pH 7.6): 1680 nM
CC/C(=C(/c1ccc(O)cc1)c1ccc(OCCN(C)C)cc1)c1ccccc1 — IC50 (Sodium channel protein type 2 subunit alpha (SCN2A, Homo sapiens, UniProt Q99250); ion current, inhibitor, patch clamp): 4200 nM
